Results collected from several papers.
Numbered parts are unrelated; each lists some results of a single study.

Sample 1
Target: Prothrombin, mature alpha-thrombin (F2, Homo sapiens, UniProt P00734)
Technique: aptamer microarray, sandwich
Molecule type: DNA with 2'F-ANA
Matrix: in vitro
Tested at: 200 nM
Notes: whole 15-mer aptamer, many near background
With: Cy3 exosite-II aptamer, 400 nM
Reading: higher = stronger binding
Quantity: mean fluorescence intensity
Sequence: GGTTGGTGTGGTTGG
Modification = 2'F-ANA at 1 2 3 5 6 7 8 11 13 15; result = 53.1 a.u.
Modification = 2'F-ANA at 1 2 3 5 9 10 11 12 13 14 15; result = 61.7 a.u.
Modification = 2'F-ANA at 1 3 5 8 9 11 14 15; result = 46.8 a.u.
Modification = 2'F-ANA at 9 10 12 13 14 15; result = 121 a.u.
Modification = 2'F-ANA at 4 7 10 12 13 15; result = 92.6 a.u.
Modification = 2'F-ANA at 1 7 10; result = 52.4 a.u.
Modification = 2'F-ANA at 5 8 9 12 13 14; result = 47.6 a.u.
Modification = 2'F-ANA at 2 3 7 8 9 13 15; result = 896 a.u.
Modification = 2'F-ANA at 8 10 11 13 14; result = 87.2 a.u.
Modification = 2'F-ANA at 1 2 8 9 11 13; result = 115 a.u.
Modification = 2'F-ANA at 2 3 4 5 8 13 14; result = 63.8 a.u.
Modification = 2'F-ANA at 1 3 4 5 7 8 10 11 12 13 15; result = 51.9 a.u.
Modification = 2'F-ANA at 2 3 6 7 9 10 13 14 15; result = 196 a.u.
Modification = 2'F-ANA at 1 2 4 6 7 9 11 14; result = 48.9 a.u.
Modification = 2'F-ANA at 2 4 7 8 9 15; result = 360 a.u.
Modification = 2'F-ANA at 5 6 8 10 11 12 13; result = 53 a.u.
Modification = 2'F-ANA at 1 6 9 10 11 12; result = 62.4 a.u.
Modification = 2'F-ANA at 2 3 5 7 9 10 13; result = 53.9 a.u.
Modification = 2'F-ANA at 1 4 5 6 7 8 9 10 11 12 14 15; result = 52.7 a.u.
Modification = 2'F-ANA at 4 8 10 11 14; result = 56.1 a.u.
Modification = 2'F-ANA at 1 3 6 7 9 12; result = 443 a.u.

Sample 2
Target: RING finger protein unkempt homolog, zinc fingers 1-6, GST-SBP tag (UNK, Homo sapiens, UniProt Q9C0B0, residues 30-357)
UniProt Q9C0B0, sequence (30-357, looked up): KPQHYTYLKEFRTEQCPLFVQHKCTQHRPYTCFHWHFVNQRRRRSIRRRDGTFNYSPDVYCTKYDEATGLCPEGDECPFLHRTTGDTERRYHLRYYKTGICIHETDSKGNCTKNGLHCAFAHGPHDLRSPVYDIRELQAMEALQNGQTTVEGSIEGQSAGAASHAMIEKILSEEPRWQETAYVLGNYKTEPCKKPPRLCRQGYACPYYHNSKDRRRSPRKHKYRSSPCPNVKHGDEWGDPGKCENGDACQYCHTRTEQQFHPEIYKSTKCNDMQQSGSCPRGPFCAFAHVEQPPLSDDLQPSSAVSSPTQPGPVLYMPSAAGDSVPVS
Technique: RNA Bind-n-Seq
Molecule type: RNA
Matrix: in vitro
Tested at: not given
Notes: RNA with constant flanks, human-mouse chimeric sites, ends assumed
Baseline: input RNA pool
Reading: higher = stronger binding
Quantity: bound/input enrichment
Sequence = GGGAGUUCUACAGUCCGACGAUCGUAUACGGUUAUCGAGGAAAGGACUGUAGAGCGAAUGUAUACCUGCUUCCCACAGGGAAAAUAGUUUAUUUCAUUGCCUCAGUGGUAGUCCUGUUUAAUUAUGAGGAGAGGACUCAGCGACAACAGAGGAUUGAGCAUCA; result = 17.4 ratio
Sequence = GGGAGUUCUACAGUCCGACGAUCUUCAAAGAAAAGGGCAGCUGUGUCAUUUCAUAAGUAACUCUGGGGGAGGGAAAUUCUGUUCUUUUGUUUAAUUUUCCCCCAAAUGAAACCAACAUGCUUUUUAAGGAACUGAGAAAAAAUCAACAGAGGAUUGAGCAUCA; result = 0.208 ratio
Sequence = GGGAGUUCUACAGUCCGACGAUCAAAGUGGACUAUGGCGAGUACAUGGAUAAAAACAAUGUGAGGCGGCAAGCAACAACAAUCAUAGCUGAUAACAUUAUAUUUCUGAGUGACCAGACGAAAGAAAAGGCGUAGAAAGGAUGACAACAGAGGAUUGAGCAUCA; result = 1.75 ratio
Sequence = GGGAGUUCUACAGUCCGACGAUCAAAGAACCUCUCUCUGAUGAAGAUGAGGAAGACAAUGAUGAUGUUGAACCCAUUUCUGAAUUUCGAUUUGUGCCUAGUGAUAAGUCAGCAUUGGAGGCGAUGUUCACUGCAAUGUGCGAGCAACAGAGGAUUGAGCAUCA; result = 0.262 ratio
Sequence = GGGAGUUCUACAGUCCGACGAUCACCAUUUUCGCGGUUCAGGCUUUGUGUGUAGUUCACUUACGGUAUUAAAUUAUUAUUCUGCUUAGCUUAAAGUAAGGAUAAUUGCAUGAUUUAAGUAUACUGAAUGUUACUCUGAAACUUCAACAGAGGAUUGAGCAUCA; result = 0.276 ratio
Sequence = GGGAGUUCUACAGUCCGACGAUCUAAGUUAUUUUGUACAGCUUUGUAAAUUCUUAACAUUAAUUUGUAAACAUGUUUAUUUUGUUUGGGUAAUUUGGUUCAUACAUGGCCUAGCUAAGGUAAUGAACAUCUUUUUCAGUAAUUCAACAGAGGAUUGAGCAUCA; result = 0.329 ratio
Sequence = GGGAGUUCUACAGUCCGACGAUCCACAGAGGAGAUCUGCUGUUCCUCACGAAUUUCCGGGAGGACCCCAUCAGAGCUGGUGAAAUAGUUGUUUUUAAGGUUGAAGGACGAGACAUUCCGAUAGUUCACAGAGUAAUCAAAGUUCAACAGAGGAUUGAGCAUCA; result = 3.49 ratio
Sequence = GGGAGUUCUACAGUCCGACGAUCGAGUCGAGCAAACUUGAAACAAUUCGUUAUCUUGCAGCCUCAGUGUUCACUUGCUUGGCGAUAGCAUAUUGGGAUUUUAGGUUCUGGAAGGAGAACUGACGAUGAUGUCCUGCUGUGUGCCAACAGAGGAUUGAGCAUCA; result = 0.3 ratio

Sample 3
Target: Interferon regulatory factor 5, full length, phosphomimetic (IRF5, Homo sapiens, UniProt Q13568-2, residues 1-514, K96S/S451D/S453D/S456D/S462D)
Technique: protein-binding microarray
Molecule type: double-stranded DNA, one strand shown
Matrix: in vitro
Tested at: 250 nM
Notes: 60-bp whole probe
With: salmon DNA 0.4 mg/ml
Baseline: random background probes
Reading: higher = stronger binding
Quantity: log fluorescence
Shared flanks, not repeated: GCCTAGCAC … GTCTTGATTCGCTTGACGCTGCTG
Sequence = GACGCACTGGGGTTTCGAGACGTGCTA; result = 0.79 z-score
Sequence = GACGATTACGGGTTTCGAGACGTGCTA; result = 1.59 z-score
Sequence = GACGGTCTCGGTATCGAGACGTGCTAG; result = 1.05 z-score
Sequence = TCAAGTCTGGGCTACAACTTGGTGCTA; result = -0.656 z-score
Sequence = TCATTTTGGTCTTTCTGACTGTGCTAG; result = 1.63 z-score
Sequence = TTAGATATCAGACTGGATTCGTGCTAG; result = 0.212 z-score
Sequence = TTAGATATCGGGGCTGGATTAGTGCTA; result = 0.836 z-score
Sequence = GACGAACTGAGTTTCGATACGTGCTAG; result = 9.16 z-score
Sequence = TATGGCTTCAAGTAACTACAGTGCTAG; result = -0.0597 z-score
Sequence = GACGGTCTTGGTATCGGGACGTGCTAG; result = 1.1 z-score
Sequence = GACGGTCTCGGACTGGGTACGTGCTAG; result = -0.507 z-score
Sequence = TTAGGTGTCCTTTCCCTTTAGTGCTAG; result = 0.437 z-score
Sequence = CAGAGCATGGATCTGGGAACGTGCTAG; result = -0.695 z-score
Sequence = GACGGTTTCGGACTAGGGACGTGCTAG; result = 4.67 z-score
Sequence = TTAGATTTCGGGTATCGAGTAGTGCTA; result = 6.14 z-score
Sequence = TTAGGTTTCGTCACTGGGTTAGTGCTA; result = 3.86 z-score
Sequence = TTAGGTTTCGACTAGCGGTTAGTGCTA; result = 7.43 z-score
Sequence = TTAGAACTGAGTTTCGACTAGTGCTAG; result = 7.14 z-score
Sequence = TTAGAACTGAGACTGGAATAGTGCTAG; result = -0.0638 z-score
Sequence = TTAGGACTGGAACTGGGTTAGTGCTAG; result = -0.604 z-score
Sequence = GACGGTTCCCTTTTCCTTACGTGCTAG; result = 0.724 z-score
Sequence = GACGGCCTGGACTTTCGGGACGTGCTA; result = 3.29 z-score
Sequence = GACGGTAACCTTTTCCTGACGTGCTAG; result = -0.0685 z-score
Sequence = TTAGGACTGGACTATCGGTTGGTGCTA; result = 4.87 z-score
Sequence = TCATTTTTTTTTTTTGTACTGTGCTAG; result = 1.19 z-score

Sample 4
Target: RNA binding protein fox-1 homolog 2, RRM domain, GST-SBP tag (RBFOX2, Homo sapiens, UniProt O43251-10, residues 100-194)
Technique: RNA Bind-n-Seq
Molecule type: RNA
Matrix: in vitro
Tested at: 365 nM
Notes: natural RNA segment, single round, ends assumed
Baseline: no-protein control
Reading: higher = stronger binding
Quantity: RBNS enrichment (R)
Residues (chain): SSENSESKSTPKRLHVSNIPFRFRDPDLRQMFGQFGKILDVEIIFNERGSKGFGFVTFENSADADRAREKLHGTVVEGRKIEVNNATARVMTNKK
Sequence = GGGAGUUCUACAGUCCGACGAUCUAUCAAAUGAAAUAUUACAGCACCUAGAAAAUAAUUUAGUUUUGCUUGCUUCCAUUGAUCAGUCUUUUACUUGAGGCAUUAAAUAUCUAAUUAAAUCGUGAAAUGGCAGUUGGAAUUCUCGGGUGCCAA; result = 0.342
Sequence = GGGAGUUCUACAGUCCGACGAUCAAGAAUCCCUUCAAGGAGAAAGGUGGCUGUCUGAUAAGCUGAUGGCAUGGAGCCCUGCCCUGAGUGUCUGUCCCUCUUCAGCCAAGCCCAAGUCUCCUAGACCCCCAGGGUGGAAUUCUCGGGUGCCAA; result = 0.305
Sequence = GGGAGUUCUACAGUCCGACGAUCAUAAUGCCUACCUUCAAAACCAGAAUCGGCAGCACUCUACAAAUGAAAGUGCCUGUGUCUCACACCAAGAAUCUUGCCUAACCUGUCAGAGUGCCUAAUCUUGUGGUUAUUGGAAUUCUCGGGUGCCAA; result = 0.351
Sequence = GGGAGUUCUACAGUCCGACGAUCGAAUAAAUCACACCAGCUUCCUGAAAAUGUUCAUAAUGCAUCUUUUGGAAAACAAAUACAUGCCUACUUUGUGCAUAUUUGCAUUAACAUGGCAAAGAUUGUAUGAAAUAUGGAAUUCUCGGGUGCCAA; result = 0.311
Sequence = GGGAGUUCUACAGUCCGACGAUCUUCCGUUGUCAGCUUCUCCCCCUUCAGCCUGUUUCUGCAGCAGCCAGGGUUCUCCCCCCUACACCCUCUGCAGGUGGAGAGAGAGAAGCUGGGCCCAGCCGGGCCGUGCCUGGAAUUCUCGGGUGCCAA; result = 4
Sequence = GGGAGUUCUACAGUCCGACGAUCGGGUCUGAUAGAAAACGGGACUGCUCUGCACCAACAGCCUGUCACAGACAGGACAGCUGGACCACAGAGUUUAUUUUUGUAUUUCUUAUUGGGCCUGUACACUCCAGCUCUGGAAUUCUCGGGUGCCAA; result = 0.183
Sequence = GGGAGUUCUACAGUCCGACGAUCAACUUUUGUGCUCCAGAAAAUUUUCUAUUCUGUAAGUCUGAGCGUAAAACUUCAAGUAUUAAAAUAAUUUGUACAUGUAGAGAGAAAAAUGACUUUUUCAAAAAUAUACAUGGAAUUCUCGGGUGCCAA; result = 0.966
Sequence = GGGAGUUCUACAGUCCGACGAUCUUGUCCAGGGUGAAGCUGUGGGAGAACCGCCUGGGCUACCAGUCAGAGCUGGUCUUUGGGCUGUGUUCCUUGCCCAGGUUUCUGCAUCUUGCACUUUGACAUUCCCAGGAUGGAAUUCUCGGGUGCCAA; result = 0.623
Sequence = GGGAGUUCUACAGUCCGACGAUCAGCAAGGAUUUCUGAACACUAAAUCCAACGAGCCUUCACAGGGAAAGGAUAUUUGAGCAGAAUUCUUCAGAAUGAAUAGGAGUUAGCCAAGCAGAAAAGGCAAGAAGAGUUGGAAUUCUCGGGUGCCAA; result = 1.86

Excerpt of the above (sample 3):
Sequence = TTAGGTTTCGTCACTGGGTTAGTGCTA; result = 3.86 z-score
Sequence = TCATTTTGGTCTTTCTGACTGTGCTAG; result = 1.63 z-score
Sequence = TTAGGTGTCCTTTCCCTTTAGTGCTAG; result = 0.437 z-score
Sequence = CAGAGCATGGATCTGGGAACGTGCTAG; result = -0.695 z-score
Sequence = GACGGTTTCGGACTAGGGACGTGCTAG; result = 4.67 z-score
Sequence = TTAGGTTTCGACTAGCGGTTAGTGCTA; result = 7.43 z-score
Sequence = GACGGTAACCTTTTCCTGACGTGCTAG; result = -0.0685 z-score
